# Published values pooled from the literature.
# Each line is one published result; not all experiments were run side by side. ± gives the spread as reported.
# Alpha-carbonic anhydrase: Alpha-carbonic anhydrase (Enterococcus faecium, UniProt Q3XYE8)
# Ubiquitin carboxyl-terminal hydrolase 39 ZnF-UBD domain: Ubiquitin carboxyl-terminal hydrolase 39, ZnF-UBD domain (Homo sapiens, UniProt Q53GS9)
# Sequence of UniProt Q53GS9 (whole entry, looked up): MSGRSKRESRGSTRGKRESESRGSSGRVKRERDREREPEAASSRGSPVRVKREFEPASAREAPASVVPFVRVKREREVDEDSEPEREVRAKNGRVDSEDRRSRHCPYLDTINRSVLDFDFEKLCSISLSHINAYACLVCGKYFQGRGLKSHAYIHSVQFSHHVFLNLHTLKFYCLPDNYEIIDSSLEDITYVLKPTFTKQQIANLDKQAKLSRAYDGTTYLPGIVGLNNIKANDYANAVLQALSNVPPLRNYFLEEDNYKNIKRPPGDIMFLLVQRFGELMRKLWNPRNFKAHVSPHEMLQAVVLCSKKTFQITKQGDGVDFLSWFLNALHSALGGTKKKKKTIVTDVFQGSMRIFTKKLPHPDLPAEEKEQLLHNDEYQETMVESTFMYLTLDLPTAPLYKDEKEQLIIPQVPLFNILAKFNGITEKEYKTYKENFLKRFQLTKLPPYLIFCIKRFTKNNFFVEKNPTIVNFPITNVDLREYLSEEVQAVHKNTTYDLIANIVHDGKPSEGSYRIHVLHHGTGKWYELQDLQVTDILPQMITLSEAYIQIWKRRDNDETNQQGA
# ZBTB11/CRBN: ZBTB11/CRBN (Homo sapiens, UniProt O95625+Q96SW2)
# Sequence of UniProt Q96SW2 (whole entry, looked up): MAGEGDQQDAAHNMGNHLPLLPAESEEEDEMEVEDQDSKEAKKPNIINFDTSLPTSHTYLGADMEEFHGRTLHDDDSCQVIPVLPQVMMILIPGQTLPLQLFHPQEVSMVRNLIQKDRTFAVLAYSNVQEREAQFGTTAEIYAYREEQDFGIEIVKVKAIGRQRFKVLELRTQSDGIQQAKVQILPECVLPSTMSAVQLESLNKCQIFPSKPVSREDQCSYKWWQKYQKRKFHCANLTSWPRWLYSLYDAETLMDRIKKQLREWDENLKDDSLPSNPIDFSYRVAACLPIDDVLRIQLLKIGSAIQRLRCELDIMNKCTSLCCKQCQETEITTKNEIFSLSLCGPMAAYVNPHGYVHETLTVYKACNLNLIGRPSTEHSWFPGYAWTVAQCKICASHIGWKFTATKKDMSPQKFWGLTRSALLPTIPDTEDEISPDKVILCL
# Sequence of UniProt O95625 (whole entry, looked up): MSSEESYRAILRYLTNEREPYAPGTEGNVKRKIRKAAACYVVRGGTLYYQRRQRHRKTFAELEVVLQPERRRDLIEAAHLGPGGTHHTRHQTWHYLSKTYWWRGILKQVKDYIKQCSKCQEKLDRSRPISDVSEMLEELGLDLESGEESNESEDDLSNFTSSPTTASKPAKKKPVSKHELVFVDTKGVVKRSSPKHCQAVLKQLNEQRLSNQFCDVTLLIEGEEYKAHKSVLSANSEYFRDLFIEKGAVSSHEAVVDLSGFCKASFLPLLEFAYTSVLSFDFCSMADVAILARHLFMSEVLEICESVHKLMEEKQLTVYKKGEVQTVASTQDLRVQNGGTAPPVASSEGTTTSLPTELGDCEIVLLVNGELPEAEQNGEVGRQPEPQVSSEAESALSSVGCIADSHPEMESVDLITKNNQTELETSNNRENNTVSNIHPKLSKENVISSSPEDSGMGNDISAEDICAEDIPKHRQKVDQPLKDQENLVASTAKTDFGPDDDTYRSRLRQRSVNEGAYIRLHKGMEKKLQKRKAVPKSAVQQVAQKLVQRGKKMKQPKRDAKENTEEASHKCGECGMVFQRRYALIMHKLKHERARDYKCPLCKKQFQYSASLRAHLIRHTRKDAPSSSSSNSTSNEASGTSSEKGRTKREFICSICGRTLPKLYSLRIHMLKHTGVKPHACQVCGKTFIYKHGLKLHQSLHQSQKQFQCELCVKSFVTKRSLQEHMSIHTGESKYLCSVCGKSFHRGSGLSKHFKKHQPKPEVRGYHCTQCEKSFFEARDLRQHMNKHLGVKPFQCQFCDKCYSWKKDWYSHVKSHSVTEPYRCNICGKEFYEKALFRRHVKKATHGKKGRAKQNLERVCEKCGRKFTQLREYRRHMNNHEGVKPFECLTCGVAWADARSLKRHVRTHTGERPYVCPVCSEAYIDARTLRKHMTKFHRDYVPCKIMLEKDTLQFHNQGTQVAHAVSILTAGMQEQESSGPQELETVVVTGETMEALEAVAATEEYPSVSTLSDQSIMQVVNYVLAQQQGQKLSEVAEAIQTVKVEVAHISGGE
# USP49 ZnF-UBD domain: Ubiquitin carboxyl-terminal hydrolase 49, ZnF-UBD domain (USP49, Homo sapiens, UniProt Q70CQ1)
# Sequence of UniProt Q70CQ1 (whole entry, looked up): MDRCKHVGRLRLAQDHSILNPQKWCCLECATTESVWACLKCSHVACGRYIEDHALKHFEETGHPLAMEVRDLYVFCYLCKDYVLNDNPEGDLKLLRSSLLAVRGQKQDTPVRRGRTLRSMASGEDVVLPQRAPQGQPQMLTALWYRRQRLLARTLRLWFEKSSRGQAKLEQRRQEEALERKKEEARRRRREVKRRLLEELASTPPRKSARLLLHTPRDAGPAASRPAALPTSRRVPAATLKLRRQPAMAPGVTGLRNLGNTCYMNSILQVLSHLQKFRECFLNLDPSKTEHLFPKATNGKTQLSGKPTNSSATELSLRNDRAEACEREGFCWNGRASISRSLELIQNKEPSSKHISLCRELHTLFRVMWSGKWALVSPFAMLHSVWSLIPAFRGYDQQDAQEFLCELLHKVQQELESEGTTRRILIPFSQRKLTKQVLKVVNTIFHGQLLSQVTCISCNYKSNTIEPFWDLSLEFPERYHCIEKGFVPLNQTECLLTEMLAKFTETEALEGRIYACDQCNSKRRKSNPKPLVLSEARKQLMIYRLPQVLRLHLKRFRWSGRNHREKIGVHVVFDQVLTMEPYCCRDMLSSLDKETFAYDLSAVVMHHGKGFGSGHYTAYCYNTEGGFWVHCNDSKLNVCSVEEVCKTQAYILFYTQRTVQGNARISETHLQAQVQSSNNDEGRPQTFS
# USP20 ZnF-UBD domain: Ubiquitin carboxyl-terminal hydrolase 20, ZnF-UBD domain (USP20, Homo sapiens, UniProt Q9Y2K6)
# Sequence of UniProt Q9Y2K6 (whole entry, looked up): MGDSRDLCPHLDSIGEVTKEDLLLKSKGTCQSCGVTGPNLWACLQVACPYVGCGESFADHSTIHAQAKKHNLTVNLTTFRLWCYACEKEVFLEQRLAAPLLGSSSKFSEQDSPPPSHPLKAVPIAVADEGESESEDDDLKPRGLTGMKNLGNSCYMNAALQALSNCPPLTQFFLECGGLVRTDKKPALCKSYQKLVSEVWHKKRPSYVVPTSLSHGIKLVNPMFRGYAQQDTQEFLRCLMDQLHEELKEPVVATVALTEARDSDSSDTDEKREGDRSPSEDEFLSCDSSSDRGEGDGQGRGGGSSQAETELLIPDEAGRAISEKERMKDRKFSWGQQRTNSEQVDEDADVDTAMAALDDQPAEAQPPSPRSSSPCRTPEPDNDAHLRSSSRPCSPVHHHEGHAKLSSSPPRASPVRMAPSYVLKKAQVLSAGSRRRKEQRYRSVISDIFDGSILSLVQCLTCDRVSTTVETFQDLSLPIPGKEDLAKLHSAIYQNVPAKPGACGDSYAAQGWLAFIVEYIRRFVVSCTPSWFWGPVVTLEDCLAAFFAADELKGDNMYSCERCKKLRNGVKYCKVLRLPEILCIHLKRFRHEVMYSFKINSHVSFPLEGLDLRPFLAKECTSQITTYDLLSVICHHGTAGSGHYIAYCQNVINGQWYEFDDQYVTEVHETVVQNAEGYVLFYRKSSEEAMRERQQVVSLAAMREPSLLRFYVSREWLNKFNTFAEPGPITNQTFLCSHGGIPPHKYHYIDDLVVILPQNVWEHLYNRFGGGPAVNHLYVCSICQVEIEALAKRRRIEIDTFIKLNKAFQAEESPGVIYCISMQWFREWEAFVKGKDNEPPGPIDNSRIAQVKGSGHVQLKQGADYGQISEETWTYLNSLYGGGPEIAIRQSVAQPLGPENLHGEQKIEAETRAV
# Sequence of UniProt P34995 (whole entry, unmodified, looked up): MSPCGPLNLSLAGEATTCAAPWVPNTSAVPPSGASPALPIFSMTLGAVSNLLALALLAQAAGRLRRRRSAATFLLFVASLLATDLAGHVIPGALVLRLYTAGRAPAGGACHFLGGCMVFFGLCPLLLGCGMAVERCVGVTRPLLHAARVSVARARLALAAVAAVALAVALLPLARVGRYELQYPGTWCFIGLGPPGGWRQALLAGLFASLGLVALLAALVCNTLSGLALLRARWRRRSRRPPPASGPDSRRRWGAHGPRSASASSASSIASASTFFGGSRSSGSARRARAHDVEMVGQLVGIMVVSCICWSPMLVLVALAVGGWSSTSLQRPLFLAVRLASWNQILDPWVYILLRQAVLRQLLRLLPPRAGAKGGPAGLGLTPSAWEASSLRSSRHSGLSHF
# Sequence of UniProt P11802 (whole entry, looked up): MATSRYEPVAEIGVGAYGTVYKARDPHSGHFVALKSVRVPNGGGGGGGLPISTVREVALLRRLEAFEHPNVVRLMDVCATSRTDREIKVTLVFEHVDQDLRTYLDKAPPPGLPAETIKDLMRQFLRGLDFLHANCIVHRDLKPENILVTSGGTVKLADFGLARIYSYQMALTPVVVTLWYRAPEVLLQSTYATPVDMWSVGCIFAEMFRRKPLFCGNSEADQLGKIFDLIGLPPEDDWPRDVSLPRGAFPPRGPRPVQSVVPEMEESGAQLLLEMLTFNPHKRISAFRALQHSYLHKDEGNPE
# Sequence of UniProt Q9Y616 (whole entry, looked up): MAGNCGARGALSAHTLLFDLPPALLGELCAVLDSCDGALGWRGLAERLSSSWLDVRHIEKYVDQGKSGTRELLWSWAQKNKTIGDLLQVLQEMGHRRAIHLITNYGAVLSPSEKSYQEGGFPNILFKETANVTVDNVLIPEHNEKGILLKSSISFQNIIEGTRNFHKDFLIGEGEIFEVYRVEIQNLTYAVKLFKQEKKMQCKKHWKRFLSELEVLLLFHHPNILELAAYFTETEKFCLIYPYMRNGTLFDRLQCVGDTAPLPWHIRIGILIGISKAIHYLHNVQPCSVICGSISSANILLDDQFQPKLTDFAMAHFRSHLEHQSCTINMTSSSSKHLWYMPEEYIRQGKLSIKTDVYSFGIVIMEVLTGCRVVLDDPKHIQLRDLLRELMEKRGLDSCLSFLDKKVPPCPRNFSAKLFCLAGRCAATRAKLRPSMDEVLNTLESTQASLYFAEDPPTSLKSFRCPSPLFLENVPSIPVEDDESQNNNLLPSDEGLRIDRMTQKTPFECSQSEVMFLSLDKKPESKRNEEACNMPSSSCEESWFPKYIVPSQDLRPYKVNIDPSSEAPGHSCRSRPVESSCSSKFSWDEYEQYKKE
SMILES,target,assay,system,setting,scale,quantity,result
NS(=O)(=O)c1cnc(NC(=O)CCC2CCCCC2)s1,Alpha-carbonic anhydrase,"CO2 hydration, inhibitor, stopped-flow kinetics",,,,Ki,0.674 µM
Cc1nc(F)ccc1-c1cc(Cn2ccn(C)c2=N)cc(C(=O)NCc2ccc(Cl)c(Cl)c2)c1,"WD repeat-containing protein 5, MLL1 complex (WDR5, Homo sapiens, UniProt P61964)","MLL1 methyltransferase activity, inhibitor",,added: H3 peptide substrate,,IC50,0.0199 ± 0.0096 µM
COc1ccc(C[C@H](N)C(=O)N[C@H]2[C@@H](O)[C@H](n3cnc4c(N(C)C)ncnc43)O[C@@H]2CO)cc1,"Nuclear receptor subfamily 5 group A member 2, ligand-binding domain (NR5A2, Homo sapiens, UniProt O00482)","corepressor binding, fluorescence polarization",,"concentration not given, ligand-binding domain, added: SHP peptide",reference: DMSO,coregulator peptide Kd change,no effect
O=C(O)CCc1cnn(-c2ccccc2)c1,Ubiquitin carboxyl-terminal hydrolase 39 ZnF-UBD domain,,,,,Kd,> 1000 µM
O=C1CCC(N2C(=O)C=C(Nc3cccc(C4CCN(CCc5ccc(C(F)(F)F)c(Cl)c5)CC4)c3)C2=O)C(=O)N1 (stereo not drawn),ZBTB11/CRBN,"degrader, HiBiT luminescence, item: endogenous HiBiT-tagged protein",,,,DC50,5.6 µM
Cc1ccccc1CC(=O)Nc1nnc(S(N)(=O)=O)s1,Alpha-carbonic anhydrase,"CO2 hydration, inhibitor, stopped-flow kinetics",,,,Ki,0.022 µM
O=C(O)CCc1ccccc1OCc1ccccn1,USP49 ZnF-UBD domain,,,,,Kd,> 1000 µM
O=C1CCC(N2C(=O)C=C(Nc3cccc(C4(NCCc5ccc(Cl)c(C(F)(F)F)c5)CCC4)c3)C2=O)C(=O)N1 (stereo not drawn),ZBTB11/CRBN,"degrader, HiBiT",MIA PaCa-2 (ZBTB11/CRBN-HiBiT knock-in),24 h,,DC50,0.62 µM
CCOc1ccc(C(=O)CC(SCc2ccc(Cl)cc2)C(=O)O)cc1OCC (stereo not drawn),"Pleckstrin homology domain-containing family A member 5, PH domain (PLEKHA5, Homo sapiens, UniProt Q9HAU0)","PLEKHA5 PI(4,5)P2 binding, fluorescence polarization",,"added: BODIPY-PI(4,5)P2 tracer",,Ki,20 ± 2.8 µM
CC(C)(C(=O)Nc1nnc(S(N)(=O)=O)s1)C1CCCCC1,Alpha-carbonic anhydrase,"CO2 hydration, inhibitor, stopped-flow kinetics",,,,Ki,0.0271 µM
CCC(C)(NCCc1ccc(C)cc1)c1cccc(NC2=CC(=O)N(C3CCC(=O)NC3=O)C2=O)c1 (stereo not drawn),ZBTB11/CRBN,"degrader, HiBiT luminescence, item: endogenous HiBiT-tagged protein",,,,DC50,16 µM
CC(C(=O)Nc1nnc(S(N)(=O)=O)s1)C1CCCCC1 (stereo not drawn),Alpha-carbonic anhydrase,"CO2 hydration, inhibitor, stopped-flow kinetics",,,,Ki,0.0198 µM
Cc1cc(NC2=CC(=O)N(C3CCC(=O)NC3=O)C2=O)cc(C(C)(C)NCCc2ccc(C(F)(F)F)c(Cl)c2)c1 (stereo not drawn),ZBTB11/CRBN,"degrader, HiBiT luminescence, item: endogenous HiBiT-tagged protein",,,,DC50,11 µM
O=C(O)Cn1cnc2c(oc3ccccc32)c1=O,USP20 ZnF-UBD domain,,,,,Kd,426 µM
CC1(C)CCN(CC(=O)Nc2nnc(S(N)(=O)=O)s2)CC1,Alpha-carbonic anhydrase,"CO2 hydration, inhibitor, stopped-flow kinetics",,,,Ki,0.0339 µM
CCC(C)(NCCc1ccc(Cl)c(C(F)(F)F)c1)c1cccc(NC2=CC(=O)N(C3CCC(=O)NC3=O)C2=O)c1 (stereo not drawn),ZBTB11/CRBN,degrader,human cells,,,DC50,0.18 ± 0.14 µM
OC[C@H]1OC(O)[C@H](O)[C@@H](O)[C@@H]1O (stereo partly drawn),"Hexokinase-3 (HK3, Homo sapiens, UniProt P52790, A499V)",substrate inhibition,,"mutant A499V, partial substrate inhibition model, added: ATP 20 mM",,Ki,3100 ± 900 µM
CC[C@@H]1[C@H](F)C(=O)N[C@@H]1COc1nccc2cc(C(N)=O)c(OC)cc12,"Interleukin-1 receptor-associated kinase 3 (IRAK3, Homo sapiens, UniProt Q9Y616)","ATP-site binding, ActivX kinase profiling",THP-1 cell lysate,protein kinase domain probe peptide,,IC50,0.33 µM
CC(=O)c1c(C)c2cnc(Nc3ccc(N4CCN(CCCOc5ccc(CN6CCC(c7ccc8c(c7)CN(C7CCC(=O)NC7=O)C8=O)CC6)cc5)CC4)cn3)nc2n(C2CCCC2)c1=O (stereo not drawn),"Cyclin-dependent kinase 4 (CDK4, Homo sapiens, UniProt P11802)","protein degradation, degrader, immunoblot",Jurkat,4 h,,DC50,0.01 µM
CCC(C)(NCCc1ccc(Cl)c(Cl)c1)c1cccc(NC2=CC(=O)N(C3CCC(=O)NC3=O)C2=O)c1 (stereo not drawn),ZBTB11/CRBN,degrader,human cells,,,DC50,1.2 ± 3.2 µM
CN1CCN(c2ccc(Nc3ncc4cc(C#N)c(=O)n(C5CCCC5)c4n3)cc2)CC1,"Serine/threonine-protein kinase NLK (NLK, Homo sapiens, UniProt Q9UBE8)",,,,,IC50,0.0383 µM
O=C1CCC(N2C(=O)C=C(Nc3cccc(S(=O)(=O)NCCc4ccc(C(F)(F)F)c(Cl)c4)c3)C2=O)C(=O)N1 (stereo not drawn),ZBTB11/CRBN,"degrader, HiBiT luminescence, item: endogenous HiBiT-tagged protein",,,,DC50,37 µM
NS(=O)(=O)c1nnc(NC(=O)CCC2CCC(F)(F)CC2)s1,Alpha-carbonic anhydrase,"CO2 hydration, inhibitor, stopped-flow kinetics",,,,Ki,0.0284 µM
O=C(O)CCC(=O)Nc1cccc2ccccc12,Ubiquitin carboxyl-terminal hydrolase 39 ZnF-UBD domain,,,,,Kd,> 1000 µM
O=C(Nc1ccn(Cc2ccc(O)cc2C(F)(F)F)n1)c1c(F)cccc1F,"Transient receptor potential cation channel subfamily V member 4 (Trpv4, Rattus norvegicus, UniProt Q9ERZ8)","ion channel activity, agonist",cells overexpressing Trpv4,rat receptor,,EC50,> 10 µM
O=C(O)CCC(=O)N1CCc2ccccc21,USP49 ZnF-UBD domain,,,,,Kd,> 1000 µM
CC1(CC(=O)Nc2nnc(S(N)(=O)=O)s2)CCCCC1,Alpha-carbonic anhydrase,"CO2 hydration, inhibitor, stopped-flow kinetics",,,,Ki,0.055 µM
O=C(O)CSc1nnc(NC(=O)COc2ccccc2)s1,USP49 ZnF-UBD domain,,,,,Kd,> 1000 µM
O=C1CCC(N2C(=O)C=C(Nc3cccc(-c4cn(CCc5ccc(C(F)(F)F)c(Cl)c5)nn4)c3)C2=O)C(=O)N1 (stereo not drawn),ZBTB11/CRBN,"degrader, HiBiT luminescence, item: endogenous HiBiT-tagged protein",,,,DC50,17 µM
Nc1nc(CC(=O)O)cs1,USP49 ZnF-UBD domain,,,,,Kd,> 1000 µM
NS(=O)(=O)c1nnc(NC(=O)C(F)CC2CCCCC2)s1 (stereo not drawn),Alpha-carbonic anhydrase,"CO2 hydration, inhibitor, stopped-flow kinetics",,,,Ki,0.022 µM
O=C(O)CCc1ccccc1,USP20 ZnF-UBD domain,,,,,Kd,> 1000 µM
CCCCC[C@H](O)/C=C/[C@H]1[C@H](O)CC(=O)[C@@H]1C/C=C\CCCC(=O)O,"Prostaglandin E2 receptor EP1 subtype (PTGER1, Homo sapiens, UniProt P34995, F334L/G92S)","IP1 accumulation, agonist",AD293,,,EC50,0.0302 µM

# For quick reference, copied from above:
SMILES,target,assay,system,setting,scale,quantity,result
O=C(O)CCc1ccccc1OCc1ccccn1,USP49 ZnF-UBD domain,,,,,Kd,> 1000 µM
CCCCC[C@H](O)/C=C/[C@H]1[C@H](O)CC(=O)[C@@H]1C/C=C\CCCC(=O)O,"Prostaglandin E2 receptor EP1 subtype (PTGER1, Homo sapiens, UniProt P34995, F334L/G92S)","IP1 accumulation, agonist",AD293,,,EC50,0.0302 µM
CN1CCN(c2ccc(Nc3ncc4cc(C#N)c(=O)n(C5CCCC5)c4n3)cc2)CC1,"Serine/threonine-protein kinase NLK (NLK, Homo sapiens, UniProt Q9UBE8)",,,,,IC50,0.0383 µM
O=C(O)CCc1ccccc1,USP20 ZnF-UBD domain,,,,,Kd,> 1000 µM
